Assay results collected from several papers.
A part holds a random share of what one study measured. Substitutions count along the parent as printed.

Series 1
Target: JUN, bZIP domain (human)
Technique: DHFR protein complementation
Sample: yeast
Notes: single substitutions, most at no-binding floor
Relative to: wild-type JUN-FOS pair
Reading: higher = stronger binding
Starting sequence: JUN, bZIP domain (human); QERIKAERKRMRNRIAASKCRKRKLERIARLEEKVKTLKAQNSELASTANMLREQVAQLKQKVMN
| Substitution | binding fitness [natural log] |
| --- | --- |
| V35S | -1.3 |
| R53P | -1.29 |
| L52D | -1.37 |
| L52E | -1.41 |
| T37P | -1.41 |
| L52K | -1.42 |
| A49P | -1.35 |
| N42D | -1.41 |
| T48P | -1.38 |
| L31F | -1.3 |
| L59G | -1.29 |
| L45N | -1.3 |
| Q55G | -1.34 |

Series 2
Target: ABI1, truncated, D143A, DHFR fusion (Arabidopsis thaliana)
Technique: DHFR PCA, deep sequencing
Sample: yeast
Notes: methotrexate growth selection, single substitutions
With: (+)-ABA 58 µM
Relative to: wild-type fitted maximum
Reading: higher = stronger binding
Starting sequence: PYL1, truncated, DHFR fusion (Arabidopsis thaliana); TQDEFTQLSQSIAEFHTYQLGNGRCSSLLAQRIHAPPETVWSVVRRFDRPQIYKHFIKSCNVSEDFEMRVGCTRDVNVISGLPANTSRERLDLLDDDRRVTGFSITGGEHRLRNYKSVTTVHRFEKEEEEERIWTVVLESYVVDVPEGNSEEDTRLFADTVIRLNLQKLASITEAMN
| Substitution | relative binding score |
| --- | --- |
| S104Q | 37.5% |
| V143N | 11.4% |
| E125W | 82.2% |
| C60Y | 19.3% |
| S63F | 54.1% |
| L29H | 87.4% |
| N114R | 61.4% |
| S9V | 76.6% |
| Y115S | 8.46% |
| L156F | 75.3% |
| E128G | 94.2% |
| T17E | 70.2% |
| D144H | 33.9% |
| S9E | 94.8% |
| L138M | 83.2% |
| T173Y | 22.3% |
| L169F | -9.98% |
| N177E | 70.2% |
| W134Y | 103% |

Series 3
Target: CEP164, C-terminal peptide (human)
Technique: DHFR complementation, deep sequencing
Sample: yeast
Notes: single substitutions, model-inferred values
Relative to: wild type
Reading: higher = weaker binding
Starting sequence: PDZK1, PDZ domain 2 (human); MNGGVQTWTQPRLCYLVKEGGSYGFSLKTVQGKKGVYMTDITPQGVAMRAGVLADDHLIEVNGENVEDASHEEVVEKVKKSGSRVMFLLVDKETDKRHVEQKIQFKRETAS; partner HNRVKVYRF
| Substitution | binding free energy change |
| --- | --- |
| K28V | -0.545 kcal/mol |
| A47P | 1.05 kcal/mol |
| I41P | 1.11 kcal/mol |
| T7G | -0.328 kcal/mol |
| F105L | -0.176 kcal/mol |
| P11I | 0.547 kcal/mol |
| S22I | 0.253 kcal/mol |
| Q10W | 0.428 kcal/mol |
| K18C | 0.478 kcal/mol |
| Q104P | -0.231 kcal/mol |
| M86N | -0.248 kcal/mol |
| K102F | -0.0887 kcal/mol |
| N65H | -0.103 kcal/mol |
| S83V | 0.16 kcal/mol |
| L53C | 0.0863 kcal/mol |
| K80L | 0.546 kcal/mol |
| N65P | 0.105 kcal/mol |
| E76K | 0.105 kcal/mol |

Series 4
Target: Histone acetyltransferase KAT6A, both winged helices, GST fusion (KAT6A, Homo sapiens, UniProt Q92794, residues 1-181)
Technique: protein binding microarray
Molecule type: double-stranded DNA, one strand shown
Sample: in vitro
Tested at: not given
Notes: 8-mer, flanks averaged, mean of 2 arrays, mostly near background
Relative to: not given
Reading: higher = stronger binding
Construct (chain): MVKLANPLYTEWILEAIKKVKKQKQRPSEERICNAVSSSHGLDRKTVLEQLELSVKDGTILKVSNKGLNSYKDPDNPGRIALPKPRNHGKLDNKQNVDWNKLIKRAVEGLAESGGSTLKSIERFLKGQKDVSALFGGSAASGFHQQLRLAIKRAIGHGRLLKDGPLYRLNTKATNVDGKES
| Strand | E-score |
| --- | --- |
| ATATTTGA | -0.0539 |
| CATCTAGC | -0.149 |
| CCAGTACA | -0.19 |
| AAATAAAG | -0.11 |
| GGGGGCTA | -0.22 |
| CCCTCCCG | 0.0664 |
| CTTAAAGC | -0.108 |
| GCAGTCTA | -0.146 |
| CAAGGTAC | -0.104 |
| TAAGCAGA | -0.104 |
| GCATCTAA | -0.0529 |
| GCATCGAC | -0.0124 |
| GGGAGGAC | -0.00808 |
| AGTGTCAA | -0.0722 |
| CTCGCCTC | -0.139 |
| GCCCAGCC | -0.096 |
| CGAGTAGC | 0.247 |
| CTTTTGGA | -0.136 |
| CATCAGGC | -0.058 |
| ATCGAAGG | -0.00026 |
| AAAGCCCC | -0.214 |
| CTCGCAGA | -0.0268 |
| AAATATCA | -0.0887 |
| GCTGGCCA | -0.0828 |
| AGGTGTGA | -0.122 |

Series 5
Target: human cyclin A1
Read-out: peptide binding
Technique: yeast competitive growth sequencing
Molecule type: peptide
Organism: Saccharomyces cerevisiae
Strain: cyclin A1-Cln2 fusion
Tested at: concentration not given
Notes: RxL motif peptides
Reading: direction not given
| Sequence | binding enrichment score |
| --- | --- |
| SNARRSLNFGGST | 0.954 |
| SRIRRELFIEEIQ | 0.769 |
| PPHRRRLLFACSP | 0.179 |
| TLKGRRLVFDNQL | -0.0564 |
| PPARRRLRLSVDE | 0.464 |
| SKACRRLFGPVDS | 0.58 |
| SSAQRRLEIPSGG | 0.155 |

Series 6
Target: Protein max, full length (MAX, Homo sapiens, UniProt P61244-2, residues 1-151)
Technique: protein-binding microarray
Molecule type: double-stranded DNA, one strand shown
Sample: in vitro
Tested at: not given
Notes: k-mer, scored over probes, only values ≥0.25
Reading: higher = stronger binding
| Strand | E-score |
| --- | --- |
| ATGTGCCA | 0.314 |
| CCACATGG | 0.487 |
| ACGTGACA | 0.453 |
| ACGCGCTA | 0.273 |
| ATGCGTGG | 0.358 |
| AGTACACG | 0.353 |
| ATGCACAT | 0.36 |
| CCCCGTGA | 0.351 |
| AACGTGTC | 0.4 |
| CGAGCACG | 0.398 |
| CGAGCACA | 0.335 |
| AGACCACG | 0.39 |
| ACGGGGGG | 0.255 |
| ACGCGGGC | 0.308 |
| CTCATGTC | 0.33 |
| CGCCACAC | 0.304 |
| CATGCAGC | 0.35 |
| AAAACACG | 0.362 |
| CCACGTTA | 0.385 |
| CAAATGTG | 0.26 |
| CGTGACGC | 0.348 |
| CGTGGAAG | 0.364 |
| CCACGAGG | 0.478 |
| GCATGTAA | 0.328 |

Other studies, line by line
UNK zinc fingers 1-6, SBP tag: RING finger protein unkempt homolog, zinc fingers 1-6, SBP tag (UNK, Homo sapiens, UniProt Q9C0B0, residues 30-357)
Chain of UniProt Q9C0B0 (30-357, looked up): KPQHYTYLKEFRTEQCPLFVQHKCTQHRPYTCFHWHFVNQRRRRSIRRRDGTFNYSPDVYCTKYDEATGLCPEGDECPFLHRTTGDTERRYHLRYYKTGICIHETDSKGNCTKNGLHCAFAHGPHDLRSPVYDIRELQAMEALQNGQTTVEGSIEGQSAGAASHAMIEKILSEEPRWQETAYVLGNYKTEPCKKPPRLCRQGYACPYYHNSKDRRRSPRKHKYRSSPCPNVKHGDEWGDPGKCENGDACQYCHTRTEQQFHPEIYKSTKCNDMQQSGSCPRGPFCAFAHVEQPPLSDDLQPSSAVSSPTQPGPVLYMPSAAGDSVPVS
| Substance | target | assay | test system | conditions | how to read | endpoint | value |
| --- | --- | --- | --- | --- | --- | --- | --- |
| GGGAGUUCUACAGUCCGACGAUCCUCUAUGGGCCUCGCAGAGUUGAAAUAAUGGAAGAGGAAAGUGAACAGUAAUCUUCAUUUCCGUAUUUAUGCUCCGAUGUGAAAAUAAAUGUUAUUUGUUGAUCAUUUCUAUAAUCCAGACAACAGAGGAUUGAGCAUCA | UNK zinc fingers 1-6, SBP tag | RNA Bind-n-Seq | RNA, in vitro | 100 nM, RNA with constant flanks, ends assumed | relative to: input RNA pool, higher = stronger binding | bound/input enrichment | 0.3 ratio |
| PhoQ, residues 284 288 289 292 302 303 SSCCRF | PhoP, residues 12 14 15 18 19 NNFVT (Escherichia coli, UniProt P23836) | Sort-seq, item: YFP reporter | E. coli | PhoQ-PhoP variant library, with: 10 µM Mg2+ | relative to: high Mg2+ state, higher = stronger signaling | fold induction | 15 |
| GGGAGUUCUACAGUCCGACGAUCGAAAAUGGCUUCUGCUCCAUUAAAAAGUAAAAAUUGUCCUCCAAAUAUAAAACUCCUUAACCGAUAUUUUUGAAAUUAAAAUCUUUAAAUUUUAUAAAUCAGCUGUUGCCACUACACAACCAACAGAGGAUUGAGCAUCA | UNK zinc fingers 1-6, SBP tag | RNA Bind-n-Seq | RNA, in vitro | 100 nM, RNA with constant flanks, ends assumed | relative to: input RNA pool, higher = stronger binding | bound/input enrichment | 0.694 ratio |

Some of these lines once more (series 2):
| Substitution | relative binding score |
| --- | --- |
| T17E | 70.2% |
| D144H | 33.9% |
| S9E | 94.8% |
| L138M | 83.2% |
| T173Y | 22.3% |
| L169F | -9.98% |
